Results of several laboratories.
Parts stem from different laboratories: compare values within a part only.

Block 1
Target: Ras GTPase-activating protein-binding protein 1, full length (G3BP1, Homo sapiens, UniProt Q13283)
UniProt Q13283, sequence (whole entry, looked up): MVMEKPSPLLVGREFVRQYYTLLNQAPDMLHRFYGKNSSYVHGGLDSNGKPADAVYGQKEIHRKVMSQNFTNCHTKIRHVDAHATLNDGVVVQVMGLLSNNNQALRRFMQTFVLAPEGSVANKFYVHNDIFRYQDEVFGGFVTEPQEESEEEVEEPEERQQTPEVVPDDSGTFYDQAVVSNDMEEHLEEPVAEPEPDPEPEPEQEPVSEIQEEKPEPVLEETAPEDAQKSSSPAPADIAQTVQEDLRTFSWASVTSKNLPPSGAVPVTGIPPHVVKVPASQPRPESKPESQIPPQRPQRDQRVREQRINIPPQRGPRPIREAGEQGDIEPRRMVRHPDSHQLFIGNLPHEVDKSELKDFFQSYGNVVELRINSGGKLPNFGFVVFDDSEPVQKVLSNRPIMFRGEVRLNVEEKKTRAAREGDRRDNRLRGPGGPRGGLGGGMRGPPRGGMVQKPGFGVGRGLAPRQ
Method: RNA Bind-n-Seq
Molecule type: RNA
Sample: in vitro
Concentration: 200 nM
Notes: whole 134-nt RNA, ends assumed
Added: 150 mM KCl
Relative to: input library
Direction: higher = stronger binding
Measurement: log2 enrichment
Constant ends, left off below: GGGAGUUCUACAGUCCGACGAUC … UGGAAUUCUCGGGUGUCAAGG
CCUGUGCUACACAUCGUAUGUACCGAAUCGGGGUUUUUUGGGGUUUUUUGGUUUUUUGGGAAAGUAUUAUGUUACGCCGUUCGGAUCUGC: -0.669
AGUCCUGUGCUACACAUCGUAUGUACCGAAUCGGAAAAAGGUUUUUUUGGUUUUUGGAAAGUAUUAUGUUACGCCGUUCGGAUCUGCACU: -1.88
CCUGUGCUACACAUCGUAUGUACCGAAUCGGGGUUUUUUUGGGGUGGGGAAAAAAAGGGGAAAGUAUUAUGUUACGCCGUUCGGAUCUGC: 0.205
CCCAUCAUGUUCAGAGGUGAGGUCCGUCUGAAUGUCGAAGAGAAGAAGACUCGAGCUGCCAGGGAAGGCGACCGACGAGAUAAUCGCCUU: -1.02
GCAGGAAGUAAAAACAAAUGGAAAUGCUUCGGAUAGUGGCAGGGGUGGGGGUUGCUAAGGAAAGGGUGGGAUGGGAGUGGGUAAAGAAAU: 1.28
CUGUGCUACACAUCGUAUGUACCGAAUCGGGGAAAAAAAGGGAAAAAAAGGAAAAAAAGGGAAAGUAUUAUGUUACGCCGUUCGGAUCUG: -0.806
UCAAGUCCUGUGCUACACAUCGUAUGUACCGAAUCGGGAGGGAAAGGGAAAGGGAAAGUAUUAUGUUACGCCGUUCGGAUCUGCACUUCC: 0.915
AAGUCCUGUGCUACACAUCGUAUGUACCGAAUCGGGGUUUUGGGUUUUGGUUUUGGGAAAGUAUUAUGUUACGCCGUUCGGAUCUGCACU: -0.69
GAGGAGACUCUGCGCAGAGCACUUUGGGUCCGGAGGGCGAGACUCCGGCGGAAGCAUUCCCGGGCGGGUGACCCAGCACGGUCCCUCUUG: -1.34
CACAGACAACACGCACCCACACAGACACAGAGGGAAGGGGUUGGGAUGGGGACAGGGUGCACAGCAGGGCGGGGUAGGACCCCAGACCCU: 1.85
AGUCCUGUGCUACACAUCGUAUGUACCGAAUCGGUUUUUGGAAAAAGGAAAAAAAGGAAAGUAUUAUGUUACGCCGUUCGGAUCUGCACU: -1.28
AAGUCCUGUGCUACACAUCGUAUGUACCGAAUCGGGGUUUGGGGUUUGGUUUGGGGAAAGUAUUAUGUUACGCCGUUCGGAUCUGCACUU: -0.107
CUCAAGUCCUGUGCUACACAUCGUAUGUACCGAAUCGGGGCCGGCCGGCCGGGGAAAGUAUUAUGUUACGCCGUUCGGAUCUGCACUUCC: 0.116
AGUCCUGUGCUACACAUCGUAUGUACCGAAUCAAAUUUAAACCCAAAUUUUUUUAAAAAAGUAUUAUGUUACGCCGUUCGGAUCUGCACU: -0.503

Block 2
Target: Hepatocyte nuclear factor 3-beta, forkhead domain (FOXA2, Homo sapiens, UniProt Q9Y261, residues 142-269)
Method: protein-binding microarray
Molecule type: double-stranded DNA, one strand shown
Sample: in vitro
Concentration: not given
Notes: k-mer, scored over probes, only values ≥0.25
Direction: higher = stronger binding
Measurement: E-score
Residues (chain): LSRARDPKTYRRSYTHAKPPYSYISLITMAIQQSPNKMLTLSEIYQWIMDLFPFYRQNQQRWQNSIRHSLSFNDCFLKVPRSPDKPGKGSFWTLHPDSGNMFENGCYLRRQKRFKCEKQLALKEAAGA
CATGTGTA: 0.356
ATGACATA: 0.296
TGTAAGAA: 0.256
ATATGTCG: 0.302
AATCAATG: 0.292
ACGATAAC: 0.299
GTGTTAGA: 0.255
TATTTCAA: 0.353
GTTGTCTA: 0.3
ATCGTACA: 0.276
AGTGTGTG: 0.256
TGTTGTAA: 0.263
ATTCATAA: 0.277
AATATCAA: 0.261
AATAAACG: 0.277
GATATACA: 0.346
GTAGATAA: 0.336
ATAATTCA: 0.253
ATGATAAC: 0.308

Block 3
Target: Interferon regulatory factor 7, full length, phosphomimetic (IRF7, Homo sapiens, UniProt Q92985, residues 1-503, S101K/S471D/S472D/S475D/S476D/S477D/S483D/S484D/S487D)
UniProt Q92985, sequence (whole entry, unmodified, looked up): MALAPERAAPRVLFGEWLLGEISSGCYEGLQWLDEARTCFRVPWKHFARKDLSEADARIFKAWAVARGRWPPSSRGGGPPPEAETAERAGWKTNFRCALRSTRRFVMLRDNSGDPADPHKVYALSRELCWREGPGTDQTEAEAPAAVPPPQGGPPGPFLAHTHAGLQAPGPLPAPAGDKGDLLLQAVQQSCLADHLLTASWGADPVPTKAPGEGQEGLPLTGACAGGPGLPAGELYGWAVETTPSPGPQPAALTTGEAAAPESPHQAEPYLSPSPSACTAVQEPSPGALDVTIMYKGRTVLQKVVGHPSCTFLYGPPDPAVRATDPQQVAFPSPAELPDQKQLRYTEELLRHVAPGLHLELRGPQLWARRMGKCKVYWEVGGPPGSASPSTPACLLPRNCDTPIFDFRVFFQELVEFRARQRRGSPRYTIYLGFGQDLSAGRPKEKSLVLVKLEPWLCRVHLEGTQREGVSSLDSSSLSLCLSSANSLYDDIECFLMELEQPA
Method: protein-binding microarray
Molecule type: double-stranded DNA, one strand shown
Sample: in vitro
Concentration: 250 nM
Notes: 60-bp whole probe
Added: salmon DNA 0.4 mg/ml
Relative to: random background probes
Direction: higher = stronger binding
Measurement: log fluorescence
Constant ends, left off below: GCCTAGCAC … GTCTTGATTCGCTTGACGCTGCTG
TTAGGACTGGACATTCGGTTAGTGCTA: 0.0505 z-score
GACGATTTCAGTCACGAGACGTGCTAG: 0.123 z-score
GTAAAATTATTCTGTATATTGTGCTAG: 0.142 z-score
TTAGGTCTCGGACTGGGTCAGTGCTAG: 0.224 z-score
TTGGGTATCGACACTGGGTTAGTGCTA: -0.469 z-score
ATAGGTTTCCTTCTCCTTTAGTGCTAG: 2.21 z-score
CTTTAACTCATTCTCTGTTTGTGCTAG: 1.89 z-score
TGAGGTCTCCTACTGCTTTAGTGCTAG: -0.592 z-score
TCAACACTCTTCTTTTGCACTGTGCTA: 0.269 z-score
GACGGTCCCCTTTTCCTGACGTGCTAG: 1.45 z-score
GACGGTATCGGGTTTGGGGACGTGCTA: 1.02 z-score
GACGAACTGAGGTTCGAGACGTGCTAG: -0.0527 z-score
TTAGGTATCCGTCTCGGTTAGTGCTAG: 0.478 z-score
ATATGTGTATATATAATATAGTGCTAG: -0.058 z-score
GACGGTTTCGGACTGGGGATGTGCTAG: 4.1 z-score
GTTGAGTTCTGTTGCAAAGGGTGCTAG: -0.432 z-score
TTAGATTACAGACTGGATTAGTGCTAG: 0.261 z-score
TCATGTACGTCGTTTCCCACTGTGCTA: 0.6 z-score
TAAGATTTCGGGTTTCGATTAGTGCTA: 8.39 z-score
TCTCTTTTATTTTTTTTATTGTGCTAG: 1.23 z-score
GACGGTTTCGGAACTGGGGACGTGCTA: 6.35 z-score

Block 4
Target: RNA binding protein fox-1 homolog 2, RRM domain, GST-SBP tag (RBFOX2, Homo sapiens, UniProt O43251-10, residues 100-194)
Method: RNA Bind-n-Seq
Molecule type: RNA
Sample: in vitro
Concentration: 365 nM
Notes: natural RNA segment, single round, ends assumed
Relative to: no-protein control
Direction: higher = stronger binding
Measurement: RBNS enrichment (R)
Constant ends, left off below: GGGAGUUCUACAGUCCGACGAUC … UGGAAUUCUCGGGUGCCAA
Residues (chain): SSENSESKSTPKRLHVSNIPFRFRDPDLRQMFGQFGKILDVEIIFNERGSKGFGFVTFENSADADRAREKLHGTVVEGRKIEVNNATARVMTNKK
CUGUUAAAAGCAUUCAGUUUUAAAAGGGAAACAGACUAUAAAAGUUUGGAAAAUUUGCAGCCUGAUGAUGAGAUAGAAAAGAAAAACCCAUUUUCUGAGGAUAAAUUCAA: 0.709
CCCCCGCCCGUGUGUGUAAACUGGCGAUGUGCCAGCUAGGAUGAAGCUUGCCACUCGGCUAGCGAAAAUAAUUAACAUUAUUAUGAGAAAGUGGAUUUAUCUAAAGUGGA: 1.26
UAGGAUACAGGGCAGGGAUAAAUACAGUGCAUGUCUGCUUCAAUUAGCAGAUGCCGCAACUCCACACAGUGUGUAAAAUAUAUACAACCAAAAAUCAGCUUUUGCAGGUC: 0.889
GCCAGCCAGUUCUGGGGAUUCAGAGGUGCAGGGAAGGGUUAGGGAAAAGGGGGCAAGGUUUUGGCAUUAGAUGCACUUAACCCGGCUUCCACCAGCUUCUUCCCCUCUUC: 0.264
UGCGCGUGGACUGGGCUGAGCUCCUCACCAUACACUAGUGCCGGCUUUUGUUUCCUGUAAACAGUGGUUGCAUGUGUAGGAAGUAACAAGCGAGUAUUCAGAUCAUACGA: 0.615
ACCGUAUCAUGUGGUGGCUUUAUUUCUACACUUCUUGCCCACCAUGGAUGGCCUGAAGAAGCUGUUCUCCAGCCACAACAACCACAGAAAGCCCCUCGCUCUCCCCUCUC: 0.321
UCCUCCCUCCCAAGGCCCCCAGGAAUCCCUUCCUCCCAUGUCCUGGCAGCAGGACCCCAGGCUACAUAUGGAAGGUAGAGAUGUGGGGGUCCUGUAUCCUGGAGUAUUAU: 0.727
AUAUUUUUCUGCAUACAAAUUUAUGAAGCUGGAGUCUACCAAACACAGCUUUAGUCACAAAAGUUAGUUUAGUUAUCUCAUUUCGCUUGGAGAUGGAAUUUCAGGAAGGG: 15.2
UUUAACUAGAUGUAGUAACCUUUUUUUUCUUUACUUCUAAAACAGUUACAGUUUACUAAUAAAGUUAAGUCUGGUUCUGUCCUAGAGGAAAUAAAUUCACUAUUAAUUCA: 0.506
UGUGUAAUUUAAUAGUAGCAUUCUGGAGUAGAUUCUUUUUUUGUAUUCUGGCCUUGGAAUACUUUAAUUCCGGACCAAAAGAGGUCAAUUUUGUGAGUAUUGCCUAUUAA: 0.607
UGCCUAGAUCCACGUGUGGCCUCCGUCCUGUCACUGAUGGAAGGUUUGCGGAUGAGGGCAUGUGCGGCUGAACUGAGAAGGCAGGCCUCCGUCUUCCCAGCGGUUCCUGU: 0.283
CAUCUUCUGAGAGGGCUUCUCAGCCUGGAAACUAUGGAAACAGCAUCAAAGAGAGAAAAGAAUGUGGGGCGAUUCCGCUGCUCCACACCCCCAGCGGCCCAUCCCACACC: 0.502

For quick reference, copied from above (block 3):
GACGGTTTCGGACTGGGGATGTGCTAG: 4.1 z-score
GACGGTTTCGGAACTGGGGACGTGCTA: 6.35 z-score
GACGGTATCGGGTTTGGGGACGTGCTA: 1.02 z-score
TTAGGACTGGACATTCGGTTAGTGCTA: 0.0505 z-score
GACGGTCCCCTTTTCCTGACGTGCTAG: 1.45 z-score
TAAGATTTCGGGTTTCGATTAGTGCTA: 8.39 z-score
ATATGTGTATATATAATATAGTGCTAG: -0.058 z-score
